Measurements gathered from unrelated publications.
Protocols differ between the studies behind these lines. Values joined by “and” are separate records of one study, mostly repeats; a detail may differ.

CC(C)n1ncc2c(C(=O)NCC3(C)CNC3)cc(C3CC3)nc21
cell protection (Enterovirus D68; cytopathic effect; RD, US/MO/14-18949; 50 nM): 0.273% and -0.41% and 0%

C[C@H]1c2cccc(O)c2C(=O)C2=C(O)[C@]3(O)C(=O)C(C(N)=O)=C(O)[C@@H](N(C)C)[C@@H]3[C@@H](O)[C@@H]21
total adult worm count (Brugia malayi; SCID mouse; dose not given, 6 weeks post-treatment, dosing x42d): 62

CC1=C(Cc2cn(CCN3CCN(C(=O)OC(C)(C)C)CC3)nn2)C(=O)c2ccccc2C1=O
killing (Schistosoma mansoni; adult worms; 10 µM, 48 h): 41.6%

CN1CCCN(c2ncc(-c3ccc4nncc(Nc5cnccn5)c4c3)cn2)CC1
phenotypic severity score (Schistosoma mansoni; adult worms; 10 µM, 24 h; direction not given): 0

CC1=C(Cn2cc(CBr)nn2)C(=O)c2ccccc2C1=O
killing (Schistosoma mansoni; adult worms; 25 µM, 24 h): 40%

COc1ccc(Nc2cnnc3cc(-c4cnc(N5CCN(C)CC5)nc4)ccc23)cc1
phenotypic severity score (Schistosoma mansoni; adult worms; 10 µM, 5 h; direction not given): 0

CC1=C(Cn2cnc([N+](=O)[O-])n2)C(=O)c2ccccc2C1=O
killing (Schistosoma mansoni; adult worms; 25 µM, 24 h): 41.7%

CN(C)c1ccc(O)c2c1C[C@H]1C[C@H]3[C@H](N(C)C)C(O)=C(C(N)=O)C(=O)[C@@]3(O)C(O)=C1C2=O
median adult worm burden (Brugia malayi; SCID mouse; x28d dosing, 6 weeks post-treatment): 1 worms per mouse

COc1ccc(Nc2cnnc3cc(-c4cnc(N5CCCN(C)CC5)nc4)ccc23)cc1Cl
phenotypic severity score (Schistosoma mansoni; adult worms; 10 µM, 5 h; direction not given): 0

Repeated from above:
CC(C)n1ncc2c(C(=O)NCC3(C)CNC3)cc(C3CC3)nc21
cell protection (Enterovirus D68; cytopathic effect; RD, US/MO/14-18949; 50 nM): 0.273% and -0.41% and 0%
